Measurements of several laboratories.
Numbered parts are unrelated; each lists some results of a single study. Values joined by “and” are separate records of one study, mostly repeats; a detail may differ. Positions count from the first letter of the parent shown.

Study 1
Target: CCNB1, cyclin fold, Cln2 fusion (human)
Technique: yeast growth competition, sequencing
Matrix: yeast
Setting: strong parent motif
Reference: not given
Direction: higher = stronger binding
Parent: viral docking peptide; KGVKRKLFAEDSS
Change | normalised enrichment score
L7E | 0.343
D11H | 1.32
V3Q | 0.0857
L7D | 0.184
L7T | 0.377
K6M | 1.64
S12N | 2.6
F8C | 0.287

Study 2
Target: UBE2D3 UBC core domain (UniProt P61077)
Technique: yeast two-hybrid
Matrix: yeast
Setting: mostly zero background
Reference: not given
Direction: higher = stronger interaction
B1: UBE4B RING domain (UniProt O95155); chain KNARAEIDYSDAPDEFRDPLMDTLMTDPVRLPSGTIMDRSIILRHLLNSPTDPFNRQTLTESMLEPVPELKEQIQAWMREKQNSDH
B2: RNF10 RING domain (UniProt Q8N5U6); chain VRICSHEVPSCPICLYPPTAAKITRCGHIFCWACILHYLSLSEKTWSKCPICYSSVHKKDLKS
B3: CBLL1 RING domain (UniProt Q75N03); chain GEKDDTPVHFCDKCGLPIKIYGRMIPCKHVFCYDCAILHEKKGDKMCPGCSDPVQRIEQCT
B4: RNF32 RING domain (UniProt Q9H0A6); chain VQALRRETHECSICLAPLSAAGGQRVGAGRRSREMALLSCSHVFHHACLLALEEFSVGDRPPFHACPLCRSCYQKKILEC
B5: TRIM74 RING domain (UniProt Q86UV6); chain SLLELEDWLQCPICLEVFKESLMLQCGHSYCKGCLVSLSYHLDTKVRCPMCWQVVDGSSSLP
B6: TRIM2 RING domain (UniProt Q9C040); chain VRQIDKQFLICSICLERYKNPKVLPCLHTFCERCLQNYIPAHSLTLSCPVCRQTSILPEKGV
Molecule | lacZ reporter activity
B1 (UBE4B RING domain) | 0
B2 (RNF10 RING domain) | 0
GSEEEEIPFRCFICRQAFQNPVVTKCRHYFCESCALEHFRATPRCYICDQPTGGIFNPA (RNF113B RING domain (UniProt Q8IZP6)) | 0
B3 (CBLL1 RING domain) | 0
B4 (RNF32 RING domain) | 0
PLRRLQEEKLCKICMDRHIAVVFIPCGHLVTCKQCAEAVDRCPMCSAVIDFKQRVF (BIRC8 RING domain (UniProt Q96P09)) | 0
B5 (TRIM74 RING domain) | 0
B6 (TRIM2 RING domain) | 0

Study 3
Target: HLA class I histocompatibility antigen, A alpha chain, allele A*25:01 (Homo sapiens, UniProt P04439)
Effect on: peptide-MHC binding
Molecule type: peptide
Tested at: concentration not given
Molecule | binding
SLLHESTLK | inactive
LTDSSTLLV | inactive
KMKDPKMYH | inactive
ETLDVFGPI | active
LRYGNVLDV | inactive
LELAEITAE | inactive
NLFEIEWEE | inactive
EGFDPRALI | inactive

Mixed results
Compound | cell line | technique | tested at | added | quantity | result
CC(C)S(=O)(=O)c1ccc2nccc(Nc3ccc4sc(C5CCCC5)nc4c3)c2c1.Cl | L929 RIPK3-/- reexpressing RIPK3 K51A | CCK-8 | 3.125 µM | zVAD | survival | 95.1% and 96.5% and 101%

Some of these lines once more (study 3):
Molecule | binding
LTDSSTLLV | inactive
KMKDPKMYH | inactive
